Experimental data of several laboratories.
Each line is one published result; not all experiments were run side by side. Values joined by “and” are separate records of one study, mostly repeats; a detail may differ. ± marks the error that the study gave. Values after ≈ are worked out from the molar mass of the structure shown.
Organism: Staphylococcus aureus

C/C(=C\C(=O)OCCCCCCCCC(=O)O)C[C@@H]1OC[C@H](C[C@@H]2O[C@H]2[C@@H](C)[C@H](C)O)[C@@H](O)[C@H]1O — unhealed wound area (USA300, mouse, skin wound infection; topical, 100 µL twice daily, day 7; relative to: initial): 77.2%
O=C(N[C@@H](Cc1ccccc1)C(=O)O)C1COC2(CCCCC2)OC1 — residual biofilm (crystal violet staining; 500 µg/mL, 24 h; relative to: untreated): 19 ± 6%
CN[C@H](CC(C)C)C(=O)N[C@H]1C(=O)N[C@@H](CC(N)=O)C(=O)N[C@H]2C(=O)N[C@H]3C(=O)N[C@H](C(=O)N[C@H](C(=O)O)c4cc(O)cc(O)c4-c4cc3ccc4O)[C@H](O)c3ccc(c(Cl)c3)Oc3cc2cc(c3O[C@@H]2O[C@H](CO)[C@@H](O)[C@H](O)[C@H]2O[C@H]2C[C@](C)(N)[C@H](O)[C@H](C)O2)Oc2ccc(cc2Cl)[C@H]1O — MIC90 (MSSA, 67 strains): 2 µg/mL (≈ 1.38 µM)
c1ccc(CN(CCN(Cc2ccccn2)Cc2ccccn2)Cc2ccccn2)nc1 — MBC (Calgary biofilm device; MRSA BAA-1707): > 2000 µM
c1ccc(CN(CCN(Cc2ccccn2)Cc2ccccn2)Cc2ccccn2)nc1 — MBEC (Calgary Biofilm Device; MRSA 1707 biofilm; 24 h): > 2000 µM
COc1cc(-c2oc3cc(O)cc(O)c3c(=O)c2O)ccc1O — IC50 (bacterial growth; ATCC 29213; 24 h): > 100 µM
O=C(O)c1ccc(-n2cc(CNc3ccc(Br)c(C(F)(F)F)c3)c(-c3cccc(F)c3)n2)cc1 — MBEC (ATCC 25923; biofilm, Calgary device): 4 × MIC
COc1cc(-c2[o+]c3cc(O)cc(O)c3cc2O[C@@H]2O[C@H](CO)[C@@H](O)[C@H](O)[C@H]2O)ccc1O — IC50 (bacterial growth; ATCC 29213; 24 h): 28.7 µM
COc1ccc2cc3[n+](cc2c1OC)CCc1cc2c(cc1-3)OCO2 — MBC/MIC ratio: 4
C[C@H]1c2cccc(O)c2C(=O)C2=C(O)[C@]3(O)C(=O)C(C(N)=O)=C(O)[C@@H](N(C)C)[C@@H]3[C@@H](O)[C@@H]21 — inhibition zone diameter (CGMCC 1.9; concentration not given, 18 h, 37 °C): 18.5 mm
C[C@@H]1O[C@@H](OC[C@H]2O[C@@H](Oc3cc4c(O)cc(O)cc4[o+]c3-c3cc(O)c(O)c(O)c3)[C@H](O)[C@@H](O)[C@@H]2O)[C@H](O)[C@H](O)[C@H]1O — IC50 (bacterial growth; ATCC 29213; 24 h): 22 µM
CN[C@H](CC(C)C)C(=O)N[C@H]1C(=O)N[C@@H](CC(N)=O)C(=O)N[C@H]2C(=O)N[C@H]3C(=O)N[C@H](C(=O)N[C@H](C(=O)O)c4cc(O)cc(O)c4-c4cc3ccc4O)[C@H](O)c3ccc(c(Cl)c3)Oc3cc2cc(c3O[C@@H]2O[C@H](CO)[C@@H](O)[C@H](O)[C@H]2O[C@H]2C[C@](C)(N)[C@H](O)[C@H](C)O2)Oc2ccc(cc2Cl)[C@H]1O — bacterial load (USA300 LAC, female ICR mice, wound infection, full-thickness wound): 6.06 log CFU/g and 5.63 log CFU/g and 6.92 log CFU/g and 7.15 log CFU/g and 6.07 log CFU/g
CC(=O)NC[C@H]1CN(c2ccc(N3CCOCC3)c(F)c2)C(=O)O1 — MIC90 (broth microdilution; methicillin-resistant isolates): 1 µg/mL (≈ 2.96 µM)
COc1ccc(/C=C2\NC(=S)N(c3ccccc3)C2=O)c(OC)c1 — inhibition zone diameter (ATCC 6538; concentration not given): 11 ± 0.23 mm
O=c1cc(-c2ccc(O)c(O)c2)oc2cc(O)cc(O)c12 — IC50 (bacterial growth; ATCC 29213; 24 h): > 100 µM
O=C(O)c1ccc(-n2cc(CNc3cc(Br)cc(C(F)(F)F)c3)c(-c3ccc(F)c(F)c3)n2)cc1 — time to kill below detection (ATCC 700699, MRSA; 4 × MIC): ≤ 10 h
Cc1ccc(C[C@H](NC(=O)[C@@H](Cc2ccccc2)NC(=O)[C@@H](Cc2c[nH]c3ccccc23)NC(=O)[C@@H](N)CCCN)C(=O)N[C@H](Cc2ccccc2)C(=O)N[C@@H](CCN)C(N)=O)cc1 — IC50 (ATCC 33591, methicillin-resistant): > 20 µg/mL
CCCCCCCCCCCC1NCCc2cc(O)c(O)cc21 (stereo not drawn) — inhibition zone diameter (ATCC 25923; 40 µg per disc, 24 h, 37 °C): 10.2 mm
CCC[C@@H]1C[C@@H](C(=O)N[C@@H]([C@H]2O[C@H](SC)[C@H](O)[C@@H](O)[C@H]2O)[C@H](C)Cl)N(C)C1 — inhibition zone diameter (CGMCC 1.9; concentration not given, 18 h, 37 °C): 13 mm
COc1c(N2C[C@@H]3CCCN[C@@H]3C2)c(F)cc2c(=O)c(C(=O)O)cn(C3CC3)c12 — MIC90 (broth microdilution; methicillin-resistant isolates): 2 µg/mL (≈ 4.98 µM)
Cn1nc(-c2ccccc2)cc1C1COC2(CCCCC2)O1 (stereo not drawn) — residual biofilm (crystal violet staining; 500 µg/mL, 24 h; relative to: untreated): 6 ± 1%
Cc1c2c(nn1C)CSCc1cc(n(C)n1)CSc1cc(c3ccccc3c1)OCCCc1c(C(=O)O)n(C)c3c-2c(Cl)ccc13 — biofilm inhibition (crystal violet staining; MSSA and MRSA clinical isolates; 1/2 x MIC, 24 h): ~80%
Cc1ccc(C[C@H](NC(=O)[C@@H](Cc2ccccc2)NC(=O)[C@@H](Cc2c[nH]c3ccccc23)NC(=O)[C@@H](N)CCCN)C(=O)N[C@H](Cc2ccccc2)C(=O)N[C@H](Cc2c[nH]cn2)C(N)=O)cc1 — IC50 (ATCC 33591, methicillin-resistant): > 20 µg/mL
CN[C@H](CC(C)C)C(=O)N[C@H]1C(=O)N[C@@H](CC(N)=O)C(=O)N[C@H]2C(=O)N[C@H]3C(=O)N[C@H](C(=O)N[C@H](C(=O)O)c4cc(O)cc(O)c4-c4cc3ccc4O)[C@H](O)c3ccc(c(Cl)c3)Oc3cc2cc(c3O[C@@H]2O[C@H](CO)[C@@H](O)[C@H](O)[C@H]2O[C@H]2C[C@](C)(N)[C@H](O)[C@H](C)O2)Oc2ccc(cc2Cl)[C@H]1O — bacterial load (MRSA GU-1, mouse skin abscess model, skin tissue; subcutaneous, 2.5 mg/kg daily, 7 days): ~290000 CFU/g
O=C1/C(=C/c2ccc([N+](=O)[O-])cc2[N+](=O)[O-])NC(=S)N1c1ccccc1 — inhibition zone diameter (ATCC 6538; concentration not given): 14 ± 0.53 mm
OC[C@H]1O[C@@H](Oc2cc3c(O)cc(O)cc3[o+]c2-c2ccc(O)c(O)c2)[C@H](O)[C@@H](O)[C@H]1O — IC50 (bacterial growth; ATCC 29213; 24 h): 21.9 µM
CN[C@H](CC(C)C)C(=O)N[C@H]1C(=O)N[C@@H](CC(N)=O)C(=O)N[C@H]2C(=O)N[C@H]3C(=O)N[C@H](C(=O)N[C@H](C(=O)O)c4cc(O)cc(O)c4-c4cc3ccc4O)[C@H](O)c3ccc(c(Cl)c3)Oc3cc2cc(c3O[C@@H]2O[C@H](CO)[C@@H](O)[C@H](O)[C@H]2O[C@H]2C[C@](C)(N)[C@H](O)[C@H](C)O2)Oc2ccc(cc2Cl)[C@H]1O — isolates inhibited (clinical isolates; ≤2 µg/mL, MIC breakpoint): 72.8%
O=C(N[C@H](CO)[C@H](O)c1ccc([N+](=O)[O-])cc1)C(Cl)Cl — inhibition zone diameter (CGMCC 1.9; concentration not given, 18 h, 37 °C): 19.5 mm
C[C@H]1COc2c(N3CCN(C)CC3)c(F)cc3c(=O)c(C(=O)O)cn1c23 — MBC (ATCC 25904; 20 h): 0.091 µg/mL
CCCCCCCCCC(=O)N[C@@H](Cc1c[nH]c2ccccc12)C(=O)N[C@H](CC(N)=O)C(=O)N[C@@H](CC(=O)O)C(=O)N[C@@H]1C(=O)NCC(=O)N[C@@H](CCCN)C(=O)N[C@@H](CC(=O)O)C(=O)N[C@H](C)C(=O)N[C@@H](CC(=O)O)C(=O)NCC(=O)N[C@H](CO)C(=O)N[C@@H]([C@H](C)CC(=O)O)C(=O)N[C@@H](CC(=O)c2ccccc2N)C(=O)O[C@@H]1C — biofilm reduction (XTT; MRSA ATCC BAA-1556; MIC, 24 h, pre-formed biofilm): ~33%
CN[C@H](CC(C)C)C(=O)N[C@H]1C(=O)N[C@@H](CC(N)=O)C(=O)N[C@H]2C(=O)N[C@H]3C(=O)N[C@H](C(=O)N[C@H](C(=O)O)c4cc(O)cc(O)c4-c4cc3ccc4O)[C@H](O)c3ccc(c(Cl)c3)Oc3cc2cc(c3O[C@@H]2O[C@H](CO)[C@@H](O)[C@H](O)[C@H]2O[C@H]2C[C@](C)(N)[C@H](O)[C@H](C)O2)Oc2ccc(cc2Cl)[C@H]1O — log bacterial load (09057, female BALB/c mice, sepsis, liver; intraperitoneal, 20 mg/kg): 4.92 log(CFU/g) and 4.47 log(CFU/g) and 4.85 log(CFU/g) and 4.81 log(CFU/g)
O=C(O)c1ccc(-n2cc(CNc3ccc(Cl)c(C(F)(F)F)c3)c(-c3cccc(F)c3)n2)cc1 — biofilm MIC (ATCC 25923; 24 h, preformed biofilm): 2 × planktonic MIC
CN[C@H](CC(C)C)C(=O)N[C@H]1C(=O)N[C@@H](CC(N)=O)C(=O)N[C@H]2C(=O)N[C@H]3C(=O)N[C@H](C(=O)N[C@H](C(=O)O)c4cc(O)cc(O)c4-c4cc3ccc4O)[C@H](O)c3ccc(c(Cl)c3)Oc3cc2cc(c3O[C@@H]2O[C@H](CO)[C@@H](O)[C@H](O)[C@H]2O[C@H]2C[C@](C)(N)[C@H](O)[C@H](C)O2)Oc2ccc(cc2Cl)[C@H]1O — MIC (broth microdilution; USA300 MRSA, LB medium; no added Zn2+): 1 µg/mL (≈ 0.69 µM)
